Measurements pooled from the literature.
Compare with care: the assays were run in different laboratories.
DRD3: D(3) dopamine receptor (DRD3, Homo sapiens, UniProt P35462)
UniProt P35462, sequence (whole entry, looked up): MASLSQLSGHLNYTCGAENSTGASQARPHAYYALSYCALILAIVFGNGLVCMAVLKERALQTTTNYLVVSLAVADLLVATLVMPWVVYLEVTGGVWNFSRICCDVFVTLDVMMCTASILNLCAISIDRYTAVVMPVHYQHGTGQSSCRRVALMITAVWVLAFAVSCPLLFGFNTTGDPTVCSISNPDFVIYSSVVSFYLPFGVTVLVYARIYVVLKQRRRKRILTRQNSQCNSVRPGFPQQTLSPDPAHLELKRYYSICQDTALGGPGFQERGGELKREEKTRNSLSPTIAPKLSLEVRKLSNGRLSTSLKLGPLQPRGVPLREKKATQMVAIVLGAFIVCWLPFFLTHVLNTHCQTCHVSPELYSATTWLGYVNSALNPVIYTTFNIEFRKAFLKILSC
CTSL: Procathepsin L (CTSL, Homo sapiens, UniProt P07711)
UniProt P07711, sequence (whole entry, looked up): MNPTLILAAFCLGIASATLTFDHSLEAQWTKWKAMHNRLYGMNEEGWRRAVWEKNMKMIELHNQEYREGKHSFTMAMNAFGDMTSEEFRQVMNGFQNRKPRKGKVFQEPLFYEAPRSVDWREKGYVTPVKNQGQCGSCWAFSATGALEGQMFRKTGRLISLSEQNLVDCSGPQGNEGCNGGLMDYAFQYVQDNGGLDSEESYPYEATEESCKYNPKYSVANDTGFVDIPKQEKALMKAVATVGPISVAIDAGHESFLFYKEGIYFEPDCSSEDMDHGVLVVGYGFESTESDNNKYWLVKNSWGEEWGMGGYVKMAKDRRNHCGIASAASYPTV
UniProt Q13976, sequence (whole entry, looked up): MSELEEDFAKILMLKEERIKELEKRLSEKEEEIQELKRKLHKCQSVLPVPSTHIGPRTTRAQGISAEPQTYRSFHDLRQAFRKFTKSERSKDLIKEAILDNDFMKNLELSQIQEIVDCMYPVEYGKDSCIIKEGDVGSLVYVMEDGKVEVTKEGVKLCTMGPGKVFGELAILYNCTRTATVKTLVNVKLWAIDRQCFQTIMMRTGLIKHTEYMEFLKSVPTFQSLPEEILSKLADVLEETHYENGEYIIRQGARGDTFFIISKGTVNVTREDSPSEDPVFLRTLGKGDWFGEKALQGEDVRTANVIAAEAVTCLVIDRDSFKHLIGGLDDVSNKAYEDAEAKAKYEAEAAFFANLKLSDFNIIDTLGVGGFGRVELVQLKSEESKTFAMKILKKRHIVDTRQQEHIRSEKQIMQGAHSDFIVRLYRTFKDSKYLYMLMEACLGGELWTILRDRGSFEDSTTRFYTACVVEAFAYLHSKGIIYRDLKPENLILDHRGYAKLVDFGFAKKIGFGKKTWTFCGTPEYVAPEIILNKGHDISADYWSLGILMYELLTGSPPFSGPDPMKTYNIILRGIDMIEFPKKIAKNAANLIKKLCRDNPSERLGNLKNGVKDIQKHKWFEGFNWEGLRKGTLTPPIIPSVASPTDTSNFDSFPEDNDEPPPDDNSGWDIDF
UniProt Q92915, sequence (whole entry, looked up): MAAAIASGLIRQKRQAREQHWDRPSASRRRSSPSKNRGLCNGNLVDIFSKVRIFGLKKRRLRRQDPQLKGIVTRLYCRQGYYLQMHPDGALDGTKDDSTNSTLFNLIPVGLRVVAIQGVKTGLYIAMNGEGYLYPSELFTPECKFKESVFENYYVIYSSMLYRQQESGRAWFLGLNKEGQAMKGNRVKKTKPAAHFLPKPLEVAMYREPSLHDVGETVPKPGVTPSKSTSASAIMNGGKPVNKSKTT
UniProt Q969F8, sequence (whole entry, unmodified, looked up): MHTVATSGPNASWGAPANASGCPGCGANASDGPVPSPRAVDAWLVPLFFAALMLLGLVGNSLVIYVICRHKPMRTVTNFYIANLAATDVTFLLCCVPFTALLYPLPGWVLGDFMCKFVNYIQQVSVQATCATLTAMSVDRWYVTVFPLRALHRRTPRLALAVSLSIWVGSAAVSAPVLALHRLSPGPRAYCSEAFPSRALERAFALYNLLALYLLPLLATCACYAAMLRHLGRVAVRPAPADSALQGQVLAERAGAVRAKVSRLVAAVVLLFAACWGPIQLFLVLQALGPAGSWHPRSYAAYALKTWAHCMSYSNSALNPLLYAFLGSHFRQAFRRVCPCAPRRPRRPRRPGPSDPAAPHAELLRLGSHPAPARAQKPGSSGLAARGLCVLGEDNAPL
UniProt Q70EK9, sequence (whole entry, looked up): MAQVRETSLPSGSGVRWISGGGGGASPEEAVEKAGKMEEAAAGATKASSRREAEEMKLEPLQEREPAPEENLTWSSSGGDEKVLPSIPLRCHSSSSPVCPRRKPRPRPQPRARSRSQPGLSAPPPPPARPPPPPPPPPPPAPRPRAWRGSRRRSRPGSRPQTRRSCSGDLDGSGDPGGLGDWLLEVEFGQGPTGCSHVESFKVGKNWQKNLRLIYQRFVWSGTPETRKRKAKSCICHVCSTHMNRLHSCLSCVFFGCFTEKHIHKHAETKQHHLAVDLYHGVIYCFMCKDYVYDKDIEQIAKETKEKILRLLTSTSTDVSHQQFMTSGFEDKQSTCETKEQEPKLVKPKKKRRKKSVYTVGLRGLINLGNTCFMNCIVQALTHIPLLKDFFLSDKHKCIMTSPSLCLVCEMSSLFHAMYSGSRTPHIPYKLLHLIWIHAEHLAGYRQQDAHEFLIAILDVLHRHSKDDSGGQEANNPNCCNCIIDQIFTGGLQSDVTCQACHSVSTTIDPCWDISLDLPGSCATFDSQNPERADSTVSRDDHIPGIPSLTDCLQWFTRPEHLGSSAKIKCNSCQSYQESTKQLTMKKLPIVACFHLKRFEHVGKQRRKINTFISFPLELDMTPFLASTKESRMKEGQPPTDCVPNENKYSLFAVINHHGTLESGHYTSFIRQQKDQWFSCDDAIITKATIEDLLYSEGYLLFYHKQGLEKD
UniProt Q00535, sequence (whole entry, looked up): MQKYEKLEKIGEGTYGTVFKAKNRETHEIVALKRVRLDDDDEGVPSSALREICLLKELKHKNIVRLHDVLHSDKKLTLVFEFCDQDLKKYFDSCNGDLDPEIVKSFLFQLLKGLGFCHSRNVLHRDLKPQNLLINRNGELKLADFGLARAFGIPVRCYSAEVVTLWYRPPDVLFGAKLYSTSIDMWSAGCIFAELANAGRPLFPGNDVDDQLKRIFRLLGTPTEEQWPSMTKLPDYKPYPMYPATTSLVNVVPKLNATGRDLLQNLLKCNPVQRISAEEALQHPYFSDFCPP
UniProt P57078, sequence (whole entry, looked up): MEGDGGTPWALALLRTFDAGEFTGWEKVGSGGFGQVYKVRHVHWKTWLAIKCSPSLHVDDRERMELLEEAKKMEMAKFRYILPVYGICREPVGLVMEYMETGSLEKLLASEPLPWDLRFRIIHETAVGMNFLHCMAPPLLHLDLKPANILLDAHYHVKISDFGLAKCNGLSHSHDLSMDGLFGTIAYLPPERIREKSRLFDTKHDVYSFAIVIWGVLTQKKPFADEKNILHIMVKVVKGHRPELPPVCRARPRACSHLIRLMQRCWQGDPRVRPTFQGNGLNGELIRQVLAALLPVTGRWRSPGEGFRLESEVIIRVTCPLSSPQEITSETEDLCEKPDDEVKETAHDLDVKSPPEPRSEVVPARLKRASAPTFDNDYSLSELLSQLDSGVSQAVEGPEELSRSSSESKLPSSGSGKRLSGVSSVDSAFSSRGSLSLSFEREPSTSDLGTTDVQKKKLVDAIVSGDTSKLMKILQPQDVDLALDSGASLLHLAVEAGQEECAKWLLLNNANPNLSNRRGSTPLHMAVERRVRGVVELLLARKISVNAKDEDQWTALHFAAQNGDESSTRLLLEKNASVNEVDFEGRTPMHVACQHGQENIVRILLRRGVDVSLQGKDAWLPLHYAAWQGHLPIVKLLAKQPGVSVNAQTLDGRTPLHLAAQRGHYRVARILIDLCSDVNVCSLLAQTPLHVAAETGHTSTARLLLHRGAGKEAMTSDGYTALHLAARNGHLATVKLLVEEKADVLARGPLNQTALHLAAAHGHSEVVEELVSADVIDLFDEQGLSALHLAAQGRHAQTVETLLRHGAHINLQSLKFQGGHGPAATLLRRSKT
UniProt Q96RR4, sequence (whole entry, looked up): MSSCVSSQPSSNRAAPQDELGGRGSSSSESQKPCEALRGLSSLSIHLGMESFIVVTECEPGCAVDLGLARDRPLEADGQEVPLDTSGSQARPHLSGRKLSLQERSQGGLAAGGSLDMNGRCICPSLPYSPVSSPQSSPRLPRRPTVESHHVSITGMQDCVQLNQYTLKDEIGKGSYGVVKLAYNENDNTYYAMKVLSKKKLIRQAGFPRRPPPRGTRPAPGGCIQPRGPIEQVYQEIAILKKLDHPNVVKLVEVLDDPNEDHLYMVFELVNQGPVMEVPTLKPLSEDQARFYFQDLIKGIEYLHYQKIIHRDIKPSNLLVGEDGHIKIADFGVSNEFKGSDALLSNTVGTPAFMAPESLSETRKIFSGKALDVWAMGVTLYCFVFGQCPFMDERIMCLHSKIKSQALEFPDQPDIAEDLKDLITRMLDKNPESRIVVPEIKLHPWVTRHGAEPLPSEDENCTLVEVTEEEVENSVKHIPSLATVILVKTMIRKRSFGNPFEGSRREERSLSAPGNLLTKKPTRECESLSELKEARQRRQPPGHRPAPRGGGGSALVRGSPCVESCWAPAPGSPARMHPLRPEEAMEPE
UniProt P61075, sequence (whole entry, looked up): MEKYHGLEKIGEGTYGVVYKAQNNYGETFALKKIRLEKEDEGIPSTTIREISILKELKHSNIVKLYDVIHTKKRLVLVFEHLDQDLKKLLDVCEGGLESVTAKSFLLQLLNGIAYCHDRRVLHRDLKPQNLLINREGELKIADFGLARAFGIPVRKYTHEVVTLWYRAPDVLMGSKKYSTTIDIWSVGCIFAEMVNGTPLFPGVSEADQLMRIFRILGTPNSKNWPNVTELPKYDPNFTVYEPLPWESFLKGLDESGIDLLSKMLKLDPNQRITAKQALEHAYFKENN

Compound	target	test	system	conditions	quantity	result
Nc1ncnc2occ(-c3ccc(NC(=O)Nc4cc(C(F)(F)F)ccc4F)cc3)c12	Receptor-interacting serine/threonine-protein kinase 4 (RIPK4, Homo sapiens, UniProt P57078)	cell-free assay, inhibitor	–	20 µM	remaining signal	9.8%
Cc1[nH]c(C)c(S(=O)(=O)Nc2ccc(C(F)(F)F)c(Cl)c2)c1C(=O)NCC(F)F	DRD3	β-arrestin recruitment, agonist	–	90 min	Emax	94%
COc1ccccc1C=CC=O	CTSL	enzyme activity, inhibitor	–	100 µM	remaining activity	53%
O=c1cc(-c2ccc([N+](=O)[O-])cc2)[nH]c2c(-c3ccc(Cl)cc3)c(Cc3ccccc3)nn12	Fibroblast growth factor 14 (Homo sapiens, UniProt Q92915)	binding, SPR	–	–	kon	2050 M⁻¹ s⁻¹
O=C(/C=C/c1ccc(O)cc1)c1ccc(O)cc1O	CTSL	enzyme activity, inhibitor	–	100 µM	remaining activity	61.5%
Cc1cc([C@@H](C)Nc2ccccc2C(=O)O)c2nc(N3CCC(F)(F)CC3)c(C#N)c(=O)n2c1	Atypical kinase COQ8A, mitochondrial (COQ8A, Homo sapiens, UniProt Q8NI60)	binding, competition with immobilised ligand	–	10 µM	remaining binding	100%
C1=C/COCc2cc(ccc2OCCN2CCCC2)Nc2nccc(n2)-c2cccc(c2)COC/1	cGMP-dependent protein kinase 1 (PRKG1, Homo sapiens, UniProt Q13976)	binding	–	0.1 µM	remaining binding	100%
CC1CCCN1c1nccc(-c2cnn3ncccc23)n1 (stereo not shown)	Cyclin-dependent kinase 2 homolog (CRK2, Plasmodium falciparum, UniProt P61075)	cell-free assay	–	1 µM	remaining signal	100%
CC(=O)c1cc(-c2ccccc2)c2ccccn12	Bromodomain-containing protein 9 (BRD9, Homo sapiens, UniProt Q9H8M2)	thermal stability, DSF	–	200 µM	ΔTm	5.5 °C
CC[C@H](C)[C@H](NC(=O)[C@H](CCC(N)=O)NC(=O)[C@H](CC(C)C)NC(=O)[C@H](CCSC)NC(=O)[C@H](CCCCN)NC(=O)[C@H](CO)NC(=O)[C@H](CO)NC(=O)[C@H](CCSC)NC(=O)[C@H](CC(C)C)NC(=O)[C@H](CC(N)=O)NC(=O)[C@@H](NC(=O)[C@@H](NC(=O)[C@H](CO)NC(=O)[C@H](CC(C)C)NC(=O)[C@H](CS)NC(=O)[C@H](CCCNC(=N)N)NC(=O)[C@H](CC(=O)O)NC(=O)[C@H](Cc1c[nH]c2ccccc12)NC(=O)[C@H](Cc1ccccc1)NC(=O)[C@H](C)NC(=O)[C@H](CCC(=O)O)NC(=O)[C@@H](N)CCCCN)C(C)C)[C@@H](C)CC)C(=O)N[C@@H](CC(N)=O)C(=O)N[C@@H](C)C(=O)O	Glycogen synthase kinase-3 beta (GSK3B, Homo sapiens, UniProt P49841)	enzyme activity, inhibitor, radiometric	–	10 µM	inhibition	1%
O=CCCc1ccccc1	CTSL	enzyme activity, inhibitor	–	100 µM	remaining activity	114%
CC[C@H](C)[C@H](NC(=O)[C@H](CCC(N)=O)NC(=O)[C@H](CCCNC(=N)N)NC(=O)[C@H](CO)NC(=O)[C@H](Cc1c[nH]cn1)NC(=O)[C@@H]1CCCN1C(=O)[C@H](C)NC(=O)[C@H](CO)NC(=O)[C@H](CC(C)C)NC(=O)CNC(=O)[C@@H]1CCCN1C(=O)[C@H](CCC(N)=O)NC(=O)[C@H](CCC(N)=O)NC(=O)[C@H](CCCNC(=N)N)NC(=O)[C@H](CO)NC(=O)CNC(=O)[C@H](CO)NC(=O)[C@H](CO)NC(=O)[C@H](CCC(=O)O)NC(=O)[C@@H]1CCCN1C(=O)[C@@H]1CCCN1C(=O)[C@@H]1CCCN1C(=O)[C@H](CO)NC(=O)[C@H](CC(C)C)NC(=O)[C@H](CO)NC(=O)[C@@H](NC(=O)CN)[C@@H](C)O)C(=O)N1CCC[C@H]1C(=O)N[C@@H](C)C(=O)N1CCC[C@H]1C(=O)N[C@@H](CCC(N)=O)C(=O)NCC(=O)N[C@@H](C)C(=O)N[C@H](C(=O)N[C@@H](CC(C)C)C(=O)N[C@H](C(=O)N[C@@H](CCC(N)=O)C(=O)N[C@@H](CCCNC(=N)N)C(=O)N[C@@H](CCC(=O)O)C(=O)N[C@@H](CCCCN)C(=O)N[C@@H](CC(=O)O)C(=O)N[C@@H](CC(C)C)C(=O)N1CCC[C@H]1C(=O)N[C@@H](CC(N)=O)C(=O)N[C@@H](Cc1ccc(O)cc1)C(=O)N[C@@H](CC(N)=O)C(=O)N[C@@H](Cc1c[nH]c2ccccc12)C(=O)N[C@@H](CC(N)=O)C(=O)N[C@@H](CO)C(=O)N[C@@H](Cc1ccccc1)C(=O)NCC(=O)N[C@@H](CC(C)C)C(=O)N[C@@H](CCCNC(=N)N)C(=O)N[C@@H](Cc1ccccc1)C(N)=O)C(C)C)C(C)C	KiSS-1 receptor (KISS1R, Homo sapiens, UniProt Q969F8, T99A)	inositol phosphate, agonist	HEK293	–	Emax	53.9%
CNc1ncc2c(/C=C/C(=O)N3CCC(OC)CC3)nn(Cc3cccc(C(F)(F)F)c3)c2n1	Serine/threonine-protein kinase BRSK2 (BRSK2, Homo sapiens, UniProt Q8IWQ3)	enzyme activity, inhibitor, radiometric	–	1 µM	remaining activity	102%
Oc1ccc(/C=C\c2cc(O)cc(O)c2)cc1	CTSL	enzyme activity, inhibitor	–	100 µM	remaining activity	69.1%
CCCCC(=O)Nc1ccc(-c2ccc3ncn(CCC)c(=O)c3c2)cn1	Tyrosine-protein kinase ABL1, phosphorylated (ABL1, Homo sapiens, UniProt P00519, E255K)	binding, competition with immobilised ligand	–	0.5 µM	remaining binding	93%
O=C1OC(C(O)CO)C(=O)C1=O (stereo not shown)	CTSL	enzyme activity, inhibitor	–	100 µM	remaining activity	100%
C=CC(=O)N1CCC(COCC(=O)N2CCN(c3nc(-c4cnc(N)nc4C(F)F)nc(N4CCOC[C@@H]4C)n3)CC2)CC1	Mast/stem cell growth factor receptor Kit (KIT, Homo sapiens, UniProt P10721, V559D/V654A)	binding, competition with immobilised ligand	–	1 µM	remaining binding	98%
Cc1cc(O)c2c(=O)c3c(O)cc(O)c4c5c(O)cc(O)c6c(=O)c7c(O)cc(C)c8c1c2c(c34)c(c78)c65	CTSL	enzyme activity, inhibitor	–	100 µM	remaining activity	32.5%
CC(C)CCC[C@@H](C)[C@H]1CC[C@H]2[C@@H]3CC=C4C[C@@H](O)CC[C@]4(C)[C@H]3CC[C@]12C	Ubiquitin carboxyl-terminal hydrolase 51 (USP51, Homo sapiens, UniProt Q70EK9)	enzyme activity, inhibitor	–	5 µM	inhibition	0%
Cc1[nH]c(C)c(S(=O)(=O)Nc2ccc(C(F)(F)F)c(Cl)c2)c1C(=O)N(C)CC(F)(F)F	DRD3	β-arrestin recruitment, agonist	–	90 min	Emax	85%
COc1cc(-c2cncc3c2CN(C)Cc2cc(N4CCNCC4)ccc2-3)cc(OC)c1OC	Calcium/calmodulin-dependent protein kinase kinase 2 (CAMKK2, Homo sapiens, UniProt Q96RR4)	enzyme activity, inhibitor	–	1 µM	remaining activity	109%
CC[C@H](C)[C@H](NC(=O)[C@H](CCC(N)=O)NC(=O)[C@@H](NC(=O)[C@H](CCSC)NC(=O)[C@H](CCCCN)NC(=O)[C@H](CO)NC(=O)[C@@H](NC(=O)[C@H](CCSC)NC(=O)[C@H](CC(C)C)NC(=O)[C@H](CC(N)=O)NC(=O)[C@@H](NC(=O)[C@@H](NC(=O)[C@H](CO)NC(=O)[C@H](CC(C)C)NC(=O)[C@H](C)NC(=O)[C@H](CCCNC(=N)N)NC(=O)[C@H](CCC(=O)O)NC(=O)[C@H](Cc1ccc(O)cc1)NC(=O)[C@H](Cc1ccccc1)NC(=O)[C@H](C)NC(=O)[C@H](CC(N)=O)NC(=O)[C@@H](N)CCCCN)[C@@H](C)CC)[C@@H](C)CC)[C@@H](C)O)C(C)C)C(=O)N[C@@H](CC(N)=O)C(=O)N[C@H](C(=O)O)C(C)C	Cyclin-dependent kinase 5, with p35 (CDK5, Homo sapiens, UniProt Q00535)	enzyme activity, inhibitor, radiometric	–	50 µM, 20 min	remaining activity	65%

For quick reference, copied from above:
Compound	target	test	system	conditions	quantity	result
Cc1[nH]c(C)c(S(=O)(=O)Nc2ccc(C(F)(F)F)c(Cl)c2)c1C(=O)N(C)CC(F)(F)F	DRD3	β-arrestin recruitment, agonist	–	90 min	Emax	85%
CC[C@H](C)[C@H](NC(=O)[C@H](CCC(N)=O)NC(=O)[C@H](CCCNC(=N)N)NC(=O)[C@H](CO)NC(=O)[C@H](Cc1c[nH]cn1)NC(=O)[C@@H]1CCCN1C(=O)[C@H](C)NC(=O)[C@H](CO)NC(=O)[C@H](CC(C)C)NC(=O)CNC(=O)[C@@H]1CCCN1C(=O)[C@H](CCC(N)=O)NC(=O)[C@H](CCC(N)=O)NC(=O)[C@H](CCCNC(=N)N)NC(=O)[C@H](CO)NC(=O)CNC(=O)[C@H](CO)NC(=O)[C@H](CO)NC(=O)[C@H](CCC(=O)O)NC(=O)[C@@H]1CCCN1C(=O)[C@@H]1CCCN1C(=O)[C@@H]1CCCN1C(=O)[C@H](CO)NC(=O)[C@H](CC(C)C)NC(=O)[C@H](CO)NC(=O)[C@@H](NC(=O)CN)[C@@H](C)O)C(=O)N1CCC[C@H]1C(=O)N[C@@H](C)C(=O)N1CCC[C@H]1C(=O)N[C@@H](CCC(N)=O)C(=O)NCC(=O)N[C@@H](C)C(=O)N[C@H](C(=O)N[C@@H](CC(C)C)C(=O)N[C@H](C(=O)N[C@@H](CCC(N)=O)C(=O)N[C@@H](CCCNC(=N)N)C(=O)N[C@@H](CCC(=O)O)C(=O)N[C@@H](CCCCN)C(=O)N[C@@H](CC(=O)O)C(=O)N[C@@H](CC(C)C)C(=O)N1CCC[C@H]1C(=O)N[C@@H](CC(N)=O)C(=O)N[C@@H](Cc1ccc(O)cc1)C(=O)N[C@@H](CC(N)=O)C(=O)N[C@@H](Cc1c[nH]c2ccccc12)C(=O)N[C@@H](CC(N)=O)C(=O)N[C@@H](CO)C(=O)N[C@@H](Cc1ccccc1)C(=O)NCC(=O)N[C@@H](CC(C)C)C(=O)N[C@@H](CCCNC(=N)N)C(=O)N[C@@H](Cc1ccccc1)C(N)=O)C(C)C)C(C)C	KiSS-1 receptor (KISS1R, Homo sapiens, UniProt Q969F8, T99A)	inositol phosphate, agonist	HEK293	–	Emax	53.9%
Cc1[nH]c(C)c(S(=O)(=O)Nc2ccc(C(F)(F)F)c(Cl)c2)c1C(=O)NCC(F)F	DRD3	β-arrestin recruitment, agonist	–	90 min	Emax	94%
